Published values collected from several papers.
Parts stem from different laboratories: compare values within a part only. Substitutions count along the parent as printed.

Series 1
Target: Histone acetyltransferase KAT6A, both winged helices, GST fusion (KAT6A, Homo sapiens, UniProt Q92794, residues 1-181)
Technique: protein binding microarray
Form: double-stranded DNA, one strand shown
Medium: in vitro
Concentration: not given
Notes: 8-mer, flanks averaged, mean of 2 arrays, mostly near background
Baseline: not given
Direction: higher = stronger binding
Target sequence (chain): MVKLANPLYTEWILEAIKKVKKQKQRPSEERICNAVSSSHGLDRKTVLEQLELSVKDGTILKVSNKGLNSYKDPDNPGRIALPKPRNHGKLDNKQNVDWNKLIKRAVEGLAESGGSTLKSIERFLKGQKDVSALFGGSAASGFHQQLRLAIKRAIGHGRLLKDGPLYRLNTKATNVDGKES
`ACTACGCC` gave an E-score of 0.0972.
With `GGTCAACA` the E-score was -0.203.
`ATACCGGG` gave an E-score of 0.166.
The E-score of `CGTTCACC` is reported as 0.156.
For `AACCTCTC`, the E-score was -0.0456.
The E-score of `AGAGCCAC` is reported as -0.125.
For `CGCATAAC`, the E-score was 0.181.
The E-score of `GTTTCCTA` is reported as -0.199.
For `ACGGGGAT`, the E-score was 0.108.
For `GGACGCAC`, the E-score was 0.194.
With `GTGCCGCA` the E-score was 0.172.
`CTGGAGGA` gave an E-score of -0.14.
With `GTCAACAC` the E-score was -0.0327.
The E-score of `AGCTTAAT` is reported as -0.0955.
The E-score of `AAATATGC` is reported as -0.0652.
With `AGTTATTC` the E-score was -0.0523.

Series 2
Target: RNA binding protein fox-1 homolog 2, RRM domain, GST-SBP tag (RBFOX2, Homo sapiens, UniProt O43251-10, residues 100-194)
Technique: RNA Bind-n-Seq
Form: RNA
Medium: in vitro
Concentration: 365 nM
Notes: natural RNA segment, single round, ends assumed
Baseline: no-protein control
Direction: higher = stronger binding
Residues (chain): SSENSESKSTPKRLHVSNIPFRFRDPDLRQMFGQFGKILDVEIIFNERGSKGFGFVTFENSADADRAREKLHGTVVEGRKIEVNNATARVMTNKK
`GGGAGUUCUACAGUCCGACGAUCCCACCAGAUAUCAAGUACUCAUGACUUGACUCCCAAAUGCGCCGUUACAGGGCUAAGUUAAAGCCAGACUUUAAAGUUCUGUCACGGUGGUAAGGAAAGAAACAGGAGGUUGGAAUUCUCGGGUGCCAA`: “RBNS enrichment (R)” 0.443.
`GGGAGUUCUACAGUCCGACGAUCACUUGCCUCCUCUUGUUUACUGCCUUGUAUUGUAGUUAUGUGUGUAUAUGUCUGUCUUUCUCAUUAGAUUAUACGCUCCUUGUGGGCAGGGUCUGUCUUUUUCACCUUUGUGGAAUUCUCGGGUGCCAA` — result for “RBNS enrichment (R)”: 0.697.
`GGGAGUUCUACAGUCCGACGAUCAUCCGCCUCCUCUGCAGCAGCCAGUGUGCUGCUCGAGGGUGUUGGGGGGUCCACCCGCCUCCAUCUGGAUACUACAACCUCCCUCCUUCCUAAGUUUUGAGGUGGGGUGAUGGAAUUCUCGGGUGCCAA` — result for “RBNS enrichment (R)”: 0.251.
Under “RBNS enrichment (R)”, `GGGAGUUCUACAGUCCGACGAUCGAUCCAUGGAUGUUCCAUCUGUAGGACCAACUUGAUGUGCCCAUCCUGACAUUGUAUGCCACAAGAGCUCUUGUGAUGAUGGAAUUUUGAUUAAAGUGCACCGGAAGACGUGGAAUUCUCGGGUGCCAA` is recorded as 1.77.
For `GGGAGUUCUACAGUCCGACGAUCUGCCAUUAUGUGUGGUCUUCCCAUUAAAUGUGAACAUUUUAAUAUGUAUGCAUUCACCUUGCCUCUUGCACAAAUGUCAAAAAAAAGAUGGUAAUAUCUCAAAGAAAUGAUGGAAUUCUCGGGUGCCAA`, “RBNS enrichment (R)” read 0.421.
For `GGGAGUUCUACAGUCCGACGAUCCUAAUUACCAGGCCAGGAAGCAUGCCAACAAAGCCACACGGGUGUCCUAGCCAGCUUCCCUUCACCUGGUGUCUUGAGUAGGGCGUCUCCUGUAAUUACUGCCUUGCCAUUGGAAUUCUCGGGUGCCAA`, “RBNS enrichment (R)” read 1.08.
`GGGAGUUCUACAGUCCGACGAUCCCCAAGAUCGAGUUGGCCGAGGAUGGAUGAUUGUGGCAGCAGAAGCCGUUGCAGCCCCACGUUGUGCUCUAGGCAGGGACCUUUGGCCCCUUUGGGGAGGGAGAGACAGAUGGAAUUCUCGGGUGCCAA`: “RBNS enrichment (R)” 0.266.
Under “RBNS enrichment (R)”, `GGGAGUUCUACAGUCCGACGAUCUUUUGACAUCACCCAUUUCCAACUGGGGAUCUCUGGUGCCAAGCCAGAAAGAACGAGGCAUGUAUACACCUCUUCUUCAUGAUAUAUAAUCUAUAUUUUUUUAGGAAAACUGGAAUUCUCGGGUGCCAA` is recorded as 0.366.

Series 3
Target: CCND2, cyclin fold, Cln2 fusion (human)
Technique: yeast growth competition, sequencing
Medium: yeast
Notes: weak parent motif
Baseline: not given
Direction: higher = stronger binding
Starting sequence: ORC1 docking peptide (human); PRARKRLELGNLG; partner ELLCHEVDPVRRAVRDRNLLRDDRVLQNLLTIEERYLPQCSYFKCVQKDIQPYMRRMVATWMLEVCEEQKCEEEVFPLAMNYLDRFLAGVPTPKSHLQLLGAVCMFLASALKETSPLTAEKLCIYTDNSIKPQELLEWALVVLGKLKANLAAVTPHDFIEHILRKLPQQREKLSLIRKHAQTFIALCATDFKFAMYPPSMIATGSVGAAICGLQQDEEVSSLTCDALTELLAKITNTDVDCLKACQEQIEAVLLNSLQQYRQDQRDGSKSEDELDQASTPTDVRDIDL
`R2F`: “normalised enrichment score” 0.0796.
`L9S`: “normalised enrichment score” 0.371.
`A3F` — result for “normalised enrichment score”: -0.169.
`K5L`: “normalised enrichment score” 0.0404.
For `P1N`, “normalised enrichment score” read 0.236.
For `L9F`, “normalised enrichment score” read 0.227.
For `N11K`, “normalised enrichment score” read 0.189.
For `G13Y`, “normalised enrichment score” read -0.224.
`R6H`: “normalised enrichment score” -0.0979.
`K5H`: “normalised enrichment score” 0.198.
`L9Q`: “normalised enrichment score” 0.137.
Under “normalised enrichment score”, `R6T` is recorded as 0.404.

Single results of other studies
`PhoQ, residues 284 288 289 292 302 303 NLSRDF` has a fold induction of 20.8 (PhoP, residues 12 14 15 18 19 LQHIR (Escherichia coli, UniProt P23836); Sort-seq, item: YFP reporter; E. coli; PhoQ-PhoP variant library, with: 10 µM Mg2+; baseline: high Mg2+ state, higher = stronger signaling).

For quick reference, copied from above (series 2):
Under “RBNS enrichment (R)”, `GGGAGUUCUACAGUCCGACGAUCGAUCCAUGGAUGUUCCAUCUGUAGGACCAACUUGAUGUGCCCAUCCUGACAUUGUAUGCCACAAGAGCUCUUGUGAUGAUGGAAUUUUGAUUAAAGUGCACCGGAAGACGUGGAAUUCUCGGGUGCCAA` is recorded as 1.77.
`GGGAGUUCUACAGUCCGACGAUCAUCCGCCUCCUCUGCAGCAGCCAGUGUGCUGCUCGAGGGUGUUGGGGGGUCCACCCGCCUCCAUCUGGAUACUACAACCUCCCUCCUUCCUAAGUUUUGAGGUGGGGUGAUGGAAUUCUCGGGUGCCAA` — result for “RBNS enrichment (R)”: 0.251.
Under “RBNS enrichment (R)”, `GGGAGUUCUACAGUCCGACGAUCUUUUGACAUCACCCAUUUCCAACUGGGGAUCUCUGGUGCCAAGCCAGAAAGAACGAGGCAUGUAUACACCUCUUCUUCAUGAUAUAUAAUCUAUAUUUUUUUAGGAAAACUGGAAUUCUCGGGUGCCAA` is recorded as 0.366.
`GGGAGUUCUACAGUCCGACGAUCACUUGCCUCCUCUUGUUUACUGCCUUGUAUUGUAGUUAUGUGUGUAUAUGUCUGUCUUUCUCAUUAGAUUAUACGCUCCUUGUGGGCAGGGUCUGUCUUUUUCACCUUUGUGGAAUUCUCGGGUGCCAA` — result for “RBNS enrichment (R)”: 0.697.
